{"data": "Measurements pooled from the literature", "note": "Values joined by “and” are separate records of one study, mostly repeats; a detail may differ. ± marks the error that the study gave."}
{"Compound": "C[C@@H](O)[C@H](NC(=O)c1ccc(-c2ccc(Br)cc2)cc1)C(=O)NCC1(C)NC(=O)NC1=O (stereo partly drawn)", "system": "aqueous buffer", "conditions": "pH 7.4", "endpoint": "thermodynamic solubility", "value": "257 µM"}
{"Compound": "C=CCN1CC(=O)N2[C@@H](Cc3ccc(O)cc3F)C(=O)N(Cc3cccc(N4CC(N5CCN(CC)CC5)C4)n3)C[C@@H]2N1C(=O)NCc1ccccc1", "system": "advanced solid tumour patients", "conditions": "oral, 45 mg twice daily, any grade, dose-escalation", "endpoint": "treatment-related AST increased", "value": "0%"}
{"Compound": "O=C(O)C1CCN(c2nc(-c3ccccn3)nc3ccccc23)C1 (stereo not drawn)", "system": "Japanese Pharmacopoeia disintegration test solution 2", "conditions": "pH 6.8", "endpoint": "kinetic solubility", "value": "0.079 mg/mL"}
{"Compound": "CC(C)C[C@H](NC(=O)[C@@H](Cc1c[nH]c2ccccc12)NC(=O)[C@H](Cc1ccc(O)cc1)NC(=O)[C@H](CO)NC(=O)[C@H](Cc1c[nH]c2ccccc12)NC(=O)[C@H](Cc1c[nH]cn1)NC(=O)[C@@H]1CCC(=O)N1)C(=O)N[C@@H](CCCNC(=N)N)C(=O)N1CCC[C@H]1C(=O)NCC(N)=O", "system": "Chinese CPP children, boys", "conditions": "intramuscular, 22.5 mg, 12 months, day 1, month 6", "endpoint": "patients, grade ≥3 TEAEs", "value": "0%"}
{"Compound": "CNCc1ccc(-c2[nH]c3cc(F)cc4c3c2CCNC4=O)cc1", "system": "human patients", "conditions": "oral, 360 mg twice daily, all grades", "endpoint": "dyspnoea incidence", "value": "37.5%"}
{"Compound": "CCC(C)n1ncn(-c2ccc(N3CCN(c4ccc(OCC5COC(Cn6cncn6)(c6ccc(Cl)cc6Cl)O5)cc4)CC3)cc2)c1=O (stereo not drawn)", "system": "fresh human whole blood", "conditions": "1 µM, pH 7.4", "endpoint": "blood-to-plasma ratio", "value": 0.64}
{"Compound": "O=C(N[C@H](Cc1c[nH]c2ccccc12)C(=O)Nc1ccncc1)c1ccc(N2CCN(c3ccc(F)c(F)c3)CC2)cc1F", "system": "Swiss Webster mouse, female, liver", "conditions": "oral, 50 mg/kg, 2 h, 20% HPβCD vehicle", "endpoint": "concentration", "value": "10.8 µM"}
{"Compound": "Cn1cc(Nc2nccc(-c3ccc4c(c3)CN(C3COC3)CC[C@H]4NC(=O)c3cn(C(C)(C)C)nn3)n2)cn1", "system": "human, whole blood", "conditions": "150 mg twice daily, day 14", "how to read": "reference: pre-dose baseline", "endpoint": "B cell count change", "value": "20.2%"}
{"Compound": "CNC(=O)c1cccc(-c2ccc(O[C@H]3O[C@H](CO)[C@@H](O)[C@H](O)[C@@H]3O)c(C)c2)c1", "system": "Sprague-Dawley rat, male, plasma", "conditions": "oral, 10 mg/kg", "endpoint": "AUC(all)", "value": "22.1 ng·h/mL and 12.8 ng·h/mL and 34.6 ng·h/mL"}
{"Compound": "c1csc(CNc2cc[nH]n2)c1", "assay": "alkaline comet", "system": "Hsd:ICR(CD-1) mice, male, liver", "conditions": "oral, 125 mg/kg/day, 3 days", "endpoint": "tail DNA", "value": "1.41%"}
{"Compound": "Nc1ccc(C=Cc2ccc([125I])cc2)cc1", "assay": "HPLC", "conditions": "up to 2 months, refrigerated", "endpoint": "storage stability", "value": "stable"}
{"Compound": "COc1ccc2c(=O)n(C)c(-c3ccccc3)nc2c1", "system": "male Sprague-Dawley rat, heart", "conditions": "oral, 30 mg/kg, 0.5 h", "endpoint": "tissue concentration", "value": "1.92 ng/mL"}
{"Compound": "COc1cccc(OC)c1-c1cc(C(=O)NC2(C(=O)O)C3CC4CC(C3)CC2C4)nn1-c1ccc(C(=O)N(C)CCCN(C)CCCN(C)C(=O)CN2CCN(CC(=O)[O-])CCN(CC(=O)[O-])CCN(CC(=O)[O-])CC2)cc1C(C)C.[177Lu+3] (stereo not drawn)", "system": "mouse, HT-29 xenograft", "conditions": "4 h post injection, biodistribution", "how to read": "reference: tumour over liver uptake", "endpoint": "tumour-to-liver ratio", "value": 7.67}
{"Compound": "COc1cc2[nH]c(C)c(-c3ccc(F)cc3)c(=O)c2cc1Cl", "conditions": "pH 7.4", "endpoint": "kinetic solubility", "value": "2 to 6 µM"}
{"Compound": "N#Cc1ccc2c(c1)[C@H]1CCCN(C(=O)c3ccc4[nH]cnc4c3)[C@H]1C2", "system": "human, female", "conditions": "360 mg, day 15", "endpoint": "DHEA-S level", "value": "9.6 µmol/L"}
{"Compound": "COc1ccc([C@@H](O)c2cc(-c3ncnc4cc(N5CCOCC5)ccc34)c(F)cc2Cl)nn1", "system": "locally advanced rectal cancer patients", "conditions": "150 mg, with: capecitabine and radiotherapy", "endpoint": "fatigue TEAE incidence", "value": "50%"}
{"Compound": "CSc1ccccc1C(=O)NCCn1cc(C(=O)NCc2cccc(C)n2)c(=O)c2cc3c(cc21)OC(F)(F)O3", "system": "Sprague-Dawley rat, male, plasma", "conditions": "intravenous, 5 mg/kg of parent drug", "endpoint": "Cmax", "value": "278 ± 40.8 ng/mL"}
{"Compound": "COc1cc([C@@H]2[C@H]3CO[C@@]4(O)C(=O)[C@@H]2C=C([C@H]2Oc5cc(O)cc(O)c5C(=O)[C@@H]2O)[C@@H]34)ccc1O", "system": "FVB wild-type mice, plasma", "conditions": "oral gavage, 500 mg/kg silymarin, geometric mean", "endpoint": "AUC(0-4h)", "value": "0.2 µM·h"}
{"Compound": "CCc1c(-c2ccccc2)c(-c2ccccc2)nn1-c1ccccc1-c1cccc(OCC(=O)O)c1", "system": "female Sprague-Dawley rat, uterus", "conditions": "oral, 10 mg/kg, 1 h", "endpoint": "concentration", "value": "1180 ng/g"}
{"Compound": "CO[C@H]1C[C@@H]2CC[C@@H](C)[C@@](O)(O2)C(=O)C(=O)N2CCCC[C@H]2C(=O)O[C@H]([C@H](C)C[C@@H]2CC[C@@H](O)[C@H](OC)C2)CC(=O)[C@H](C)/C=C(\\C)[C@@H](O)[C@@H](OC)C(=O)[C@H](C)C[C@H](C)/C=C/C=C/C=C/1C", "system": "healthy adult horses", "conditions": "intravenous, 0.06 mg/kg, 8 h", "endpoint": "heart rate", "value": "35.5 ± 3.7 beats/min"}
{"Compound": "Cc1cc(Nc2ncnc3ccc(NC4=NC(C)(C)CO4)cc23)ccc1Oc1ccn2ncnc2c1", "system": "healthy volunteers, plasma", "conditions": "oral, 300 mg, day 1, single dose alone", "endpoint": "%AUCextrap, median", "value": "0.88%"}
{"Compound": "Cc1ccc(Sc2ccccc2N2CCNCC2)c(C)c1", "assay": "refers to: hot flush", "system": "healthy adult women", "conditions": "oral, 10 mg daily, 12 days", "endpoint": "participants with TEAE", "value": "0%"}
{"Compound": "CCn1cc(C(=O)N2CCOCC2)c(=O)c2cc(NC3Cc4ccccc4C3)cnc21", "system": "human, fasted", "conditions": "oral suspension, 15 mg single dose, arithmetic mean", "endpoint": "AUC(0-inf)", "value": "510 ng·h/mL"}
{"Compound": "CC(C)c1nc(CN(C)C(=O)N[C@@H](CCN2CCOCC2)C(=O)N[C@H](CC[C@H](Cc2ccccc2)NC(=O)OCc2cncs2)Cc2ccccc2)cs1", "system": "human", "conditions": "oral, dose not given", "endpoint": "participants with Somnolence", "value": "0%"}
{"Compound": "Oc1ccc(/C=C/c2cc(O)cc(O)c2)cc1", "system": "male Wistar rats, plasma", "conditions": "oral, 10 mg/kg", "endpoint": "MRT", "value": "9.72 ± 2.2 h"}
{"Compound": "O=C(Nc1nc2cccc(-c3ccc(CN4CCS(=O)(=O)CC4)cc3)n2n1)C1CC1", "assay": "refers to: rheumatoid arthritis", "system": "rheumatoid arthritis patients", "conditions": "oral, 200 mg once daily, 4 weeks, any relatedness", "endpoint": "treatment-emergent adverse events", "value": "0%"}
{"Compound": "CC(=O)O[C@H]1C(=O)[C@@]2(C)[C@H]([C@H](OC(=O)c3ccccc3)[C@]3(O)C[C@H](OC(=O)[C@H](O)[C@@H](NC(=O)c4ccccc4)c4ccccc4)C(C)=C1C3(C)C)[C@]1(OC(C)=O)CO[C@@H]1C[C@@H]2O", "assay": "refers to: Anaemia", "system": "patients with advanced solid tumours", "conditions": "intravenous, dose not given, all grades, possibly related to drug", "endpoint": "adverse event incidence", "value": "59%"}
{"Compound": "CCCOc1ccc(-c2ccc(C#N)cc2)cc1", "system": "Sprague-Dawley rat, female, placenta", "conditions": "5000 ng/mL in perfusate, 50 (unit not given), high dose, mixture of 21 LCMs", "endpoint": "median placental accumulation", "value": "449 ng/g"}
{"Compound": "COc1ccc2c(c1)CN(C(=O)CCN1CCC(Cc3ccccc3)CC1)CC[S@@+]2[O-]", "assay": "telemetry", "system": "conscious male beagle dogs", "conditions": "intravenous, 2 mg/kg, 4 h", "endpoint": "QTc interval", "value": "231 ± 11 ms"}
{"Compound": "CCCCOc1ccc([C@H]2CC[C@H](CCC)CC2)c(F)c1F", "system": "rat, fetus", "conditions": "1000 ng/mL in perfusate, middle dose, mixture of 21 LCMs", "endpoint": "median fetal accumulation", "value": "0.277 ng/g"}
{"Compound": "C[C@@H]1CCO[C@H]2Cn3cc(C(=O)NCc4ccc(F)cc4F)c(=O)c(O)c3C(=O)N12", "system": "human paediatric patients, weight sample D to under sample E kg, plasma", "conditions": "oral, 35 mg film-coated tablet, 24 h, steady state, geometric mean, population PK post-hoc, N 5", "endpoint": "trough concentration (C24)", "value": "729 ng/mL"}
{"Compound": "Cn1cc([C@H]2C[C@H]3CSC(N)=N[C@@]3(c3ccc(F)cc3F)CO2)cn1", "system": "male 129/SVE mouse, plasma", "conditions": "subcutaneous, 10 mg/kg, 1 h", "endpoint": "plasma concentration", "value": "1.61 µM"}
{"Compound": "CN(C(=O)n1cnc(-c2cccnc2)c1)[C@H]1CC[C@H](O)CC1", "system": "Wistar rat, pons", "conditions": "oral, 10 mg/kg of BIA 10-2474, 4 h, single dose", "endpoint": "concentration", "value": "32 ± 7.9 ng/g"}
{"Compound": "Cl.[2H]C([2H])([2H])CC(=O)c1cnc(NC(=O)C2CC2)cc1Nc1cccc(-c2ncn(C([2H])([2H])[2H])n2)c1OC", "assay": "geometric mean", "system": "human", "conditions": "oral, 50 mg single dose, fasted, liquid", "endpoint": "AUC(0-inf)", "value": "4140 ng·h/mL"}
{"Compound": "CCOc1c([C@H](C)n2nc(C)c3c(N)ncnc32)cc(Cl)c(F)c1[C@@H]1CNC(=O)C1", "assay": "ECG", "system": "previously treated B-cell malignancy patients", "conditions": "oral, 15 mg once daily, baseline below thresholds", "endpoint": "observations with HR above 100 bpm", "value": "0%"}
{"Compound": "CCN1/C(=C/C(C)=O)Sc2ccc(F)cc21", "system": "cynomolgus monkey", "conditions": "oral, 10 mg/kg, 0.5 h post-dose", "endpoint": "QTc interval (Bazett)", "value": "324 ± 20 ms"}
{"Compound": "CC/C=C\\C/C=C\\C/C=C\\C/C=C\\C/C=C\\C/C=C\\CCC(=O)O.Cc1cc(/C=C/C#N)cc(C)c1Nc1ccnc(Nc2ccc(C#N)cc2)n1", "system": "Capryol 90", "endpoint": "kinetic solubility", "value": "~50 mg/mL"}
{"Compound": "O=C(Nc1cnccc1Cl)N1CCN(Cc2ccc3c(c2)OC(F)(F)O3)CC1", "assay": "multiple ascending dose", "system": "young men", "conditions": "10 mg, treatment-emergent adverse events", "endpoint": "back pain incidence", "value": "50%"}
{"Compound": "Cc1nc2cccc(OCC(C)(C)C(=O)NC(C)C)c2c(N)c1C(=O)O", "system": "Swiss albino CD-1 mouse", "conditions": "oral, 2000 mg/kg, 36 h", "endpoint": "mean body weight change", "value": "2.3 ± 0.6 g"}
{"Compound": "Cc1ccc([C@@H]2O[C@H](CO)[C@@H](O)[C@H](O)[C@H]2O)cc1Cc1ccc(-c2ccc(F)cc2)s1", "system": "Japanese type 2 diabetes patients", "conditions": "200 mg, day 2, 24 h urine collection", "how to read": "reference: baseline", "endpoint": "urinary potassium excretion change", "value": "-3.92 mEq"}
{"Compound": "CCCOc1ccc(NC(=O)CN2CCN(C)CC2)cc1-c1nc(CC)c(CC)c(=O)[nH]1", "system": "healthy Chinese men", "conditions": "10 mg, with: alcohol 0.5 g/kg", "endpoint": "AUEC(0-4 h) pulse rate", "value": "29.5 ± 21.2 h·bpm"}
{"Compound": "CN[C@@H](C)C(=O)N[C@H]1CN(S(=O)(=O)c2cccc(S(=O)(=O)N3CC[C@H]4CC[C@@H](C(=O)NC(c5ccccc5)c5ccccc5)N4C(=O)[C@@H](NC(=O)[C@H](C)NC)C3)c2)CC[C@H]2CC[C@@H](C(=O)NC(c3ccccc3)c3ccccc3)N2C1=O", "assay": "LC-MS/MS", "system": "human, advanced solid tumours, plasma", "conditions": "intravenous, 30 mg weekly, day 1", "endpoint": "AUC(0-t)", "value": "529 ± 182 ng·h/mL"}
{"note": "Some of these lines once more:"}
{"Compound": "Nc1ccc(C=Cc2ccc([125I])cc2)cc1", "assay": "HPLC", "conditions": "up to 2 months, refrigerated", "endpoint": "storage stability", "value": "stable"}
{"Compound": "COc1ccc2c(=O)n(C)c(-c3ccccc3)nc2c1", "system": "male Sprague-Dawley rat, heart", "conditions": "oral, 30 mg/kg, 0.5 h", "endpoint": "tissue concentration", "value": "1.92 ng/mL"}
{"Compound": "COc1cccc(OC)c1-c1cc(C(=O)NC2(C(=O)O)C3CC4CC(C3)CC2C4)nn1-c1ccc(C(=O)N(C)CCCN(C)CCCN(C)C(=O)CN2CCN(CC(=O)[O-])CCN(CC(=O)[O-])CCN(CC(=O)[O-])CC2)cc1C(C)C.[177Lu+3] (stereo not drawn)", "system": "mouse, HT-29 xenograft", "conditions": "4 h post injection, biodistribution", "how to read": "reference: tumour over liver uptake", "endpoint": "tumour-to-liver ratio", "value": 7.67}
